Measurements pooled from the literature.
Parts stem from different laboratories: compare values within a part only.

Study 1 — technique: RNA Bind-n-Seq; molecule type: RNA; medium: in vitro; tested at: 200 nM; setting: whole 134-nt RNA, ends assumed; together with: 150 mM KCl; relative to: input library; direction: higher = stronger binding
Target: Ras GTPase-activating protein-binding protein 1, full length (G3BP1, Homo sapiens, UniProt Q13283)
Chain of UniProt Q13283 (whole entry, looked up): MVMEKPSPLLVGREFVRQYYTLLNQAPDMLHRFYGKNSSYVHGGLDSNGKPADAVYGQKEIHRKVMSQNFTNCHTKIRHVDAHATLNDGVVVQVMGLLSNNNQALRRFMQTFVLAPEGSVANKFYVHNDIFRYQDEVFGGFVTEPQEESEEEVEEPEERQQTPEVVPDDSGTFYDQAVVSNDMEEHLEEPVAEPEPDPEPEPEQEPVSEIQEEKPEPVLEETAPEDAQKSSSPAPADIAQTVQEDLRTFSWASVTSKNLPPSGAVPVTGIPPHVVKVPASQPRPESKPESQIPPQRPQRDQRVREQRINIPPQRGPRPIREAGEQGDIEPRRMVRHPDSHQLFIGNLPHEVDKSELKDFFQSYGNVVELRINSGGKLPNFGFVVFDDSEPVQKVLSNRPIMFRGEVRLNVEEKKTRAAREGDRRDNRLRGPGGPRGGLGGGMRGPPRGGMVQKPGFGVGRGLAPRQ
| Strand | log2 enrichment |
| --- | --- |
| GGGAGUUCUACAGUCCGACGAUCCAAGUCCUGUGCUACACAUCGUAUGUACCGAAUCGGGGAGGGGAAAGGGGUGGGGAAAGUAUUAUGUUACGCCGUUCGGAUCUGCACUUCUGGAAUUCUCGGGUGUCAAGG | 1.12 |
| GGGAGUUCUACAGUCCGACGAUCCACACACAACACGCACCCACACAGACACAGAGGGAAGGGGUUGGGAUGGGGACAGGGUGCACAGCAGGGCGGGGUAGGACCCCAGCCCCUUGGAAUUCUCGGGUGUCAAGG | 1.59 |
| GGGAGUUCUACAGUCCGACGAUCAGUCCUGUGCUACACAUCGUAUGUACCGAAUCGGUUUUGGGGUUUUGGGGUUUUGGGGAAAGUAUUAUGUUACGCCGUUCGGAUCUGCACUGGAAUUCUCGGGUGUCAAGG | -0.408 |
| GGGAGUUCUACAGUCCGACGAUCUGUGCUACACAUCGUAUGUACCGAAUCGGGGAAAAAAAGGGAAAAAAAGGGAAAAAAAGGGGAAAGUAUUAUGUUACGCCGUUCGGAUCUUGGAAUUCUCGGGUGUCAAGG | -0.626 |
| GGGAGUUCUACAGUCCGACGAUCACCAUGCAGGUGGGCAUCUUUGGGAAGUGGGGCAAGGGGGGGAUAGGGAAGGGGGUAACACUUUGGGAACAGGUGGUCCCAGGUCGUUUCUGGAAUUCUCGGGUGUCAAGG | 1.19 |
| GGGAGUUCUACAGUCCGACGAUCUCCUGUGCUACACAUCGUAUGUACCGAAUCGGCCCCCCGGGCCCCCCGGCCCCCCGGGGAAAGUAUUAUGUUACGCCGUUCGGAUCUGCAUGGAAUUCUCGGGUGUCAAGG | -0.38 |
| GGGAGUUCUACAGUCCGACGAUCAGUCCUGUGCUACACAUCGUAUGUACCGAAUCGGGAAAGGGAAAAAGGGAAAAAGGGAAAGUAUUAUGUUACGCCGUUCGGAUCUGCACUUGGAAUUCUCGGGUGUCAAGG | -0.303 |
| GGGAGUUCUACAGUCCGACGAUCUCAACAAGAGAUGUUCAAGAACUUUUGACACAAUAUACCAAGUUUGCACAGAUGGUAAAAAAGAUGGGAGGUAUCAAAGGACUUUUCAAAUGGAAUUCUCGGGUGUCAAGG | 0.143 |
| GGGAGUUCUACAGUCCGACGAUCUCCUGUGCUACACAUCGUAUGUACCGAAUCGGAAAAAAGGGAAAAAAGGGGAAAAAAGGGAAAGUAUUAUGUUACGCCGUUCGGAUCUGCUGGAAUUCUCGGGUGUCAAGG | -0.404 |
| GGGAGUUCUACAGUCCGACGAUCUCAUGGCUAUCAUUAGCCACAGGUACUGCUGAUUAUAAGGCCAGUAAAAUUUUAGUACCUGGAGGUUUGACUCUAAUUUUUGCACUGAUGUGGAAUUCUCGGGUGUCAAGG | -1.73 |

Study 2 — technique: RNA Bind-n-Seq; molecule type: RNA; medium: in vitro; tested at: 365 nM; relative to: no-protein control; direction: higher = stronger binding
Target: RNA binding protein fox-1 homolog 2, RRM domain, GST-SBP tag (RBFOX2, Homo sapiens, UniProt O43251-10, residues 100-194)
Setting: natural RNA segment, single round, ends assumed
Residues (chain): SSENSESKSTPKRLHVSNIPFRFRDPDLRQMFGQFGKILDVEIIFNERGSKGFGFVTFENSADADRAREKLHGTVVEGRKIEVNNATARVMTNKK
| Strand | RBNS enrichment (R) |
| --- | --- |
| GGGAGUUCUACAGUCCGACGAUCGUGAUUCAAAACAAAGGAGAUACUGCAGUGGGAAUUGUGACCUGAGUGACUCUCUGUCAGAACAAAUGCUGUGCAGGUGAUAAAGCUAUGUAUUGGAAGUCAGAUUUCUAUGGAAUUCUCGGGUGCCAA | 0.626 |
| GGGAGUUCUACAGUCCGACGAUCAAAAAUAUAACUCAGAUUUCACUGUUAGGAAUAGUUCUGUUUGUGAGCAACUUACUUCCUUUCAUCUUACACAAUGAACCUUGUAAUUUAAUUAUGAUUUUCUCUUCAUAUGGAAUUCUCGGGUGCCAA | 0.735 |
| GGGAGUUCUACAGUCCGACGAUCAUUGCCAAGAGGUGCUUGUUUUAAAAGUAUGUUUAAUAAAAUGAAAUUCUAAAGUUAGAAGUGUUCUUAAGUUGAUAUUUACUCUCUUGGUCUUGGUAGCCCUAUUAUAUUGGAAUUCUCGGGUGCCAA | 0.816 |
| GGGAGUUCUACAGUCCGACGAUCAGCUUGCAGCCCGGGGACAGAGGCCAGCUGGGAUCUGCCUGAGGACAGAGAACAUGGUCUCCUGCAGGGCCCUGCCUCCCAAGCCCCGCCCUCAGAAAGCCAAGUACCUUUGGAAUUCUCGGGUGCCAA | 0.251 |
| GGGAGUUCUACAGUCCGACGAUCGCAUCAAGCCCAUAGGAUGACUGCGCAAUCCUGUUCAGUAUUGUGAAGUAGCCCUUAAUCCUAACUUUUAAGCAAAAUCCCUUGGCCGCACUUUUAAGGUUUGGUUGUUUUGGAAUUCUCGGGUGCCAA | 1.05 |
| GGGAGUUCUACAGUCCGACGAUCGUUCAUUCUUAGAACCAAGGGAAAUACUGCUCCCCCCAUUUGCUGACGUAGUGCUCUCAUGGGCUCACCUGGGCCCAAGGCACAGCCAGGGCACAGUUAGGCCUGGAUGUUGGAAUUCUCGGGUGCCAA | 0.341 |
| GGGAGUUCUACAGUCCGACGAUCCAAAGCAAUUUUUUUUAUUACUAAACAAGGUUUUUAUGAAUAAUAGCAUUGAUAUAUAUAUAUUAUAUAUCACCCUUUAGAUCUUGAUUUCUUGGUCAUUUCUCAACCUGUGGAAUUCUCGGGUGCCAA | 0.696 |
| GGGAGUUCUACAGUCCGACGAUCCAGGGAUACGCCCAACACCAUGGCCUGCAACCCCAGGGUCAAGGGUGAAGGAAAGCAAGCUCACCGCCUGAACACGGAGAUUGUCUUUCUGCCACAGAACAGCAGCAGACUGGAAUUCUCGGGUGCCAA | 0.302 |
| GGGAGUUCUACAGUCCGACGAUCAUAUUUGAUAAUUAUAUUUGUAUUUCACCACCUAAAUGUAAUGUUGAUUCCUCAAGAAUGAAAUGAAGGCACUACAUUGAAAUAUGUUUUGUAUAAAUUUGUCAUGUUGAUGGAAUUCUCGGGUGCCAA | 0.543 |
| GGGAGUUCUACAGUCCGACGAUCCUUAACCCUUGGCUCCACCAUAAGGCACUGGGACUCGGAUUUCUCUAUCUGAUAGAGGUAUUUUCUGUGGCCCUGGGAGCUGUCUGUCUUUCCCCUACCCCCAAGGAUGCUGGAAUUCUCGGGUGCCAA | 0.42 |
| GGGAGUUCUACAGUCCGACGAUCAUCCUGGGGGAUGGCCGUGCAUGGGGUGUACACUCGCUAUAGGCAUAGGCCCGGCAUGGCUGUCGCUGGACGCCAGCUGUGCACACCCAGCCACACCUGCUGCACGCCGCUGGAAUUCUCGGGUGCCAA | 1.88 |
| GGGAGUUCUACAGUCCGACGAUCCAGCCUUGGUGGCAAGUCACUAGGAAACUUCAAGGUCUGUCUCAUCUUUAUUUUACUGUGUGCCCCUGGCUGUCCUGGAAAUCACUAUAUUGCUCAGGCUGGCUUCGGACUGGAAUUCUCGGGUGCCAA | 0.377 |

Study 3 — technique: RNAcompete; molecule type: RNA; medium: in vitro; tested at: 20 nM; setting: 7-mer, probes averaged, single round; relative to: mean of 7-mers; direction: higher = stronger binding
Target: PABPC1L2, full length, GST fusion (mouse, UniProt A0ABA7IW68)
Residues (chain): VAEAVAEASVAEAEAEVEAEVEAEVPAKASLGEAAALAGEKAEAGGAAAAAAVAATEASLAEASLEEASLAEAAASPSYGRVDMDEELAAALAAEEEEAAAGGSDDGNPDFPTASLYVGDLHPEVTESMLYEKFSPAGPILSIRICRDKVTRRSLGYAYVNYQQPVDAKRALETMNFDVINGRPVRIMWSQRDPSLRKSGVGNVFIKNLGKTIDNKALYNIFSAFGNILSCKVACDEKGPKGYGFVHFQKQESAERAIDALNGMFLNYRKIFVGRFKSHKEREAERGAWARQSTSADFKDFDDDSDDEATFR
| Strand | 7-mer Z-score |
| --- | --- |
| GAAACCG | 0.0189 |
| CGCGGAU | -0.17 |
| ACAGAUA | 0.0787 |
| UGUGUGC | -0.282 |
| ACAAUUC | 0.017 |
| AGCAUUA | -0.0681 |
| GAGACUC | -0.235 |
| AGUCUAC | -0.318 |
| AGUCAGA | -0.188 |
| AGAACCC | -0.244 |
| CCACUCA | -0.284 |
| GCGCAAU | -0.0373 |
| ACCGACC | -0.108 |
| CUAACAG | -0.0863 |
| UAGGAGU | -0.22 |
| GACUAAC | -0.106 |
| GCAUCUA | 0.00617 |
| GCAUAUG | -0.168 |
| CCCAGCC | -0.331 |
| AAGAUGC | 0.323 |
| ACUACAU | -0.124 |
| CAUUAGU | -0.199 |
| CAAGGCU | -0.101 |
| UAUAGUG | -0.211 |
| CUGGGAG | 0.0515 |

Study 4 — technique: protein-binding microarray; molecule type: double-stranded DNA, one strand shown; medium: in vitro; tested at: 940 nM top; setting: 60-bp whole probe; together with: salmon DNA 0.4 mg/ml; relative to: random background probes; direction: higher = stronger binding; constant ends, left off below: GCCTAGCAC … GTCTTGATTCGCTTGACGCTGCTG
Target: Interferon regulatory factor 5, full length, phosphomimetic (IRF5, Homo sapiens, UniProt Q13568-2, residues 1-514, S451D/S453D/S456D/S462D)
| Strand | fitted relative affinity |
| --- | --- |
| GACGATTTCCGTATCGAGACGTGCTAG | 1.36 z-score |
| GACGCTCTCGGACTGGGGACGTGCTAG | 1.01 z-score |
| TTAGGTATCGGTTGCGGTTAGTGCTAG | 10 z-score |
| GACGGTTCCCTTTTCCCGACGTGCTAG | 1.66 z-score |
| GACGATTTCAGATTGGAGACGTGCTAG | -0.228 z-score |
| CACAGAATCCCCTTCTACTCGTGCTAG | 0.441 z-score |
| AGGCAGGCATAAAGGAAAAAGTGCTAG | -0.552 z-score |
| TTGGTTCTGATCCTTCCCCTCGTGCTA | 0.466 z-score |
| TTAGGTTCCGGTTTCGGGTAGTGCTAG | 6.66 z-score |
| GATGGACTGCTACTGCTGACGTGCTAG | -0.486 z-score |
| TTAGGTTTCCTACTGCTTCAGTGCTAG | 0.847 z-score |
| TCATTATTCTAGCCTCCAACTGTGCTA | 1.11 z-score |

Some of these lines once more (study 3):
| Strand | 7-mer Z-score |
| --- | --- |
| GAGACUC | -0.235 |
| AGUCUAC | -0.318 |
| GCAUAUG | -0.168 |
| CCCAGCC | -0.331 |
| AGAACCC | -0.244 |
| AAGAUGC | 0.323 |
| UGUGUGC | -0.282 |
